Measurements pooled from the literature.
Lines come from different studies, so protocols differ. ± marks the error that the study gave.

| SMILES | assay | test system | setting | scale | quantity | result |
| --- | --- | --- | --- | --- | --- | --- |
| CN(C)C(=O)Oc1cccc([N+](C)(C)C)c1 | neuromuscular block reversal | rat | dose not given, 9 (unit not given), with: cisatracurium | relative to: T1 twitch | train-of-four ratio | 69.1 |
| Cc1cc(Nc2ccc(S(F)(F)(F)(F)F)cc2)n2nc(C(C)(F)F)nc2n1 | refers to: dihydroorotate | female CD-1 mice, blood | oral, 300 mg/kg daily, 8 h after dose 1 | – | DHO concentration | 2.02 ± 0.344 µM |
| C[C@@H](NC(=O)N1C(=O)[C@H](Cc2ccnc(N)c2)[C@H]1C(=O)O)C1CCCCC1 | – | human | iv infusion, 1.5 mg/kg/h, 24 h | – | aPTT AUEC | 7370 h·s |
| CN[C@@H]1COc2c(S(=O)(=O)NC(=O)Nc3c4c(cc5c3CCC5)CCC4)cnn2C1 | refers to: IL-1β | human participants, whole blood ex vivo | 900 mg twice daily, multiple doses, 148 h, with: LPS/ATP | relative to: baseline | inhibition | 99.9% |
| CC(C)[C@H](C(=O)Nc1ccc(C(=O)NO)cc1)c1ccccc1 | volumetric MRI | human, left IAC schwannoma | dose not given, day 23 | – | tumour volume | 16.2 cm3 |
| C[C@@H]1CCN(C(=O)CC#N)C[C@@H]1N(C)c1ncnc2[nH]ccc12 | – | mice, DSS-induced colitis | 10 mg/kg | – | disease activity index | 0 |
| COc1ccccc1[C@H](Cn1c(=O)n(C(C)(C)C(=O)O)c(=O)c2c(C)c(-c3ncco3)sc21)OC1CCOCC1 | – | human | 50 mg, post-treatment | – | blood Glucose level | 90.5 ± 10.9 mg/dL |
| N#Cc1ccc2c(-c3ccncc3)c(-c3ccc(F)cc3)nn2c1 | kinase binding, competitor, MIB/MS competition, refers to: MKK2 | Candida albicans cell lysate | 100 nM | relative to: DMSO | log2 fold change | -0.449 |
| COC[C@@H](c1ccc(C(F)(F)F)cc1)N1CCN(C2(C)CCN(C(=O)c3c(C)ncnc3C)CC2)C[C@@H]1C | – | HIV-1 infected patients, plasma | 5 mg, week 48, with optimized background regimen | relative to: baseline | change in HIV-1 RNA | -2 log10 copies/mL |
| Cc1c(C)n(Cc2cccc(OC(C)(C)C(=O)O)c2)c2ccc(C(=O)N[C@@H](C)c3ccc(C(C)(C)C)cc3)cc12 | indirect calorimetry | mice, diet-induced obese | dose not given, end of treatment | – | VO2 | 92.5 ± 9.05 mL/min/kg |
| c1ccc(-c2n[nH]cc2-c2ccnc3ccccc23)nc1 | kinase binding, competitor, MIB/MS competition, refers to: CDC7 | Candida albicans cell lysate | 100 nM | relative to: DMSO | log2 fold change | 1.23 |
| C[C@H]1C[C@H]2CSC(N)=N[C@@]2(c2nc(NC(=O)c3ccc(OC(F)F)cn3)cs2)CO1 | refers to: Aβ1-40 | healthy adults, plasma | 125 mg once daily, day 10 | relative to: placebo | percent change from baseline | -86.8% |
| N#Cc1ccn2c(-c3ccncc3)c(-c3ccc(F)cc3)nc2c1 | kinase binding, competitor, MIB/MS competition, refers to: MKK2 | Candida albicans cell lysate | 10 µM | relative to: DMSO | log2 fold change | 0.0802 |
| C[C@H](Oc1ccc(Br)cc1-c1ccon1)C(=O)O | muscle velocity recovery cycles | human, tibialis anterior muscle | 400 mg twice daily, multiple doses, frequency ramp, last response at 15 Hz | relative to: placebo | peak amplitude change | -8.69% |
| N#CCC1CCN(c2nc(Nc3ccc(N4CCC(O)CC4)cc3)c3c(=O)[nH]ncc3n2)CC1 | Olink multiplex, refers to: CDCP1 | human, serum | 40 mg, day 29 | relative to: baseline | fold change from baseline | -1.27 |
| CC(C)(C)c1sc2ncnc(Oc3c(F)cccc3OC(F)(F)F)c2c1-c1ccc(Cl)cc1 | – | naive Mrgpr knock-out mice | oral, 16 mg/kg | – | thermal paw withdrawal latency | decreased |
| O=S(=O)(NCCNC/C=C/c1ccc(Br)cc1)c1cccc2cnccc12 | – | mouse zygotes | 20 µM, 48 h post-hCG | – | embryos reaching 8-cell | 0% |

| SMILES | assay | test system | setting | scale | quantity | result |
| --- | --- | --- | --- | --- | --- | --- |
| COc1c(OCCCN2CCOCC2)ccc2c1N=C(NC(=O)c1cnc(N)nc1)N1CCN=C21 | – | relapsed iNHL patients | dose not given, 1 years follow-up | – | progression-free survival events | 29.5% |
| C[C@@H]1CCC[C@H](n2cnc(-c3cc(Cl)ccc3-n3cc(Cl)nn3)cc2=O)c2cc(ccn2)-c2c(cnn2C(F)F)NC1=O | – | rat plasma | IC1.5× aPTT, STA-PTT reagent | – | concentration for aPTT prolongation | 24 µM |
| CC(=O)NCC(=O)NCC(=O)N[C@H](C(=O)N[C@@H](Cc1ccc(O)cc1)C(=O)N[C@@H](CO)C(=O)N[C@H]1CSSC[C@@H](C(=O)N[C@@H](CCCNC(=N)N)C(=O)N2CCC[C@H]2C(=O)N[C@@H](CCC(N)=O)C(=O)N[C@@H](CCCNC(=N)N)C(=O)NCC(=O)NCCC(=O)N[C@@H](CCCCNC(=O)CN(CC(=O)NCCCC[C@H](NC(=O)CCNC(=O)CNC(=O)[C@H](CCCNC(=N)N)NC(=O)[C@H](CCC(N)=O)NC(=O)[C@@H]2CCCN2C(=O)[C@H](CCCNC(=N)N)NC(=O)[C@@H]2CSSC[C@H](NC(=O)[C@H](CO)NC(=O)[C@H](Cc3ccc(O)cc3)NC(=O)[C@@H](NC(=O)CNC(=O)CNC(C)=O)[C@@H](C)O)C(=O)N[C@@H](Cc3c[nH]cn3)C(=O)N[C@@H](Cc3ccccc3)C(=O)NCC(=O)N[C@@H](C)C(=O)N[C@@H](CC(C)C)C(=O)N[C@@H]([C@@H](C)O)C(=O)N[C@@H](Cc3c[nH]c4ccccc34)C(=O)N[C@@H](C(C)C)C(=O)N2)C(N)=O)C(=O)CCN)C(N)=O)NC(=O)[C@H](C(C)C)NC(=O)[C@H](Cc2c[nH]c3ccccc23)NC(=O)[C@H]([C@@H](C)O)NC(=O)[C@H](CC(C)C)NC(=O)[C@H](C)NC(=O)CNC(=O)[C@H](Cc2ccccc2)NC(=O)[C@H](Cc2c[nH]cn2)NC1=O)[C@@H](C)O | – | healthy BALB/c mice | subcutaneous, 0.08 mg/kg, 4 d, single dose | – | haematocrit | 48.5% |
| O=C1Nc2cc3[nH]nc(-c4ccncc4)c3cc2CN1Cc1ccccc1 | RECIST v1.1 | human, relapsed or refractory advanced solid tumours | intravenous, 7.2 mg/kg | – | complete response, best response | 0% |
| C=CCn1c(=O)c2cnc(Nc3ccc(N4CCN(C)CC4)cc3)nc2n1-c1ccc2c(n1)[C@@](O)(CC)CC2 | – | NOD/SCID mouse, A-427 xenograft | oral, 80 mg/kg once daily, 5 d on 2 d off ×1, day 42 | relative to: vehicle | tumour volume difference | -80.3 ± 4.2 mm3 |
| Cc1ccc([C@@H]2O[C@H](CO)[C@@H](O)[C@H](O)[C@H]2O)cc1Cc1ccc(-c2ccc(F)cc2)s1 | – | Japanese type 2 diabetes patients | 100 mg, day 16 | relative to: day 0 | change in 24-h mean serum insulin | -2.9 µU/mL |
| Cc1ncsc1-c1ccc(CNC(=O)[C@@H]2C[C@@H](O)CN2C(=O)[C@@H](NC(=O)C2(C#N)CC2)C(C)(C)C)cc1 | immunostaining, refers to: F4/80 | mouse, meningeal perivascular | dose not given, with: urotensin II | – | macrophage density | 11 cells/mm² |
| N#Cc1ccc2c(c1)[C@H]1CCCN(C(=O)c3ccc4[nH]cnc4c3)[C@H]1C2 | refers to: fasting plasma insulin | human, Phase II trial | oral, 80 mg once daily, day 28, adjusted mean, SE | – | change from baseline | 12.6 pmol/L |
| NCC(=O)Nc1cncc(-c2nn3c(=O)cc(N4CCNCC4)nc3s2)c1 | ADP-induced platelet aggregation, light transmission aggregometry | human, stable CAD on aspirin, ex vivo platelets | subcutaneous, 0.05 mg/kg, 90 min post-dose, mean value, with: ADP 20 µM | – | inhibition | 35% |
| Cc1n[nH]c2ccc(-c3cc(OC[C@@H](N)Cc4ccccc4)cnc3-c3ccoc3)cc12 | kinase binding, competitor, MIB/MS competition, refers to: CEK1 | Candida albicans cell lysate | 10 µM | relative to: DMSO | log2 fold change | -1.74 |
| CN(C)C(=O)c1cc2cnc(Nc3ccc(N4CCNCC4)cn3)nc2n1C1CCCC1 | RNA-seq GSEA, refers to: HALLMARK_CHOLESTEROL_HOMEOSTASIS | MB002 tumour | concentration not given, in vivo | relative to: vehicle, direction not given | normalized enrichment score | 2 |
| Cc1cc([C@H]2C[C@H]3[C@@H](CF)SC(N)=N[C@@]3(c3ccc(F)cc3F)CO2)on1 | refers to: Aβx-40 | wild-type mouse, brain | subcutaneous, 30 mg/kg, 1 h | – | brain Aβ40 level | 1.76 ng/g |
| O=C(O)CNC(=O)Cc1ccccc1 | – | ventricular cardiomyocytes, C57BL/6 mouse | dose not given, 0.192 s | – | sarcomere length | 1.62 µm |
| CCCCCN1C[C@H](O)[C@@H](O)[C@H](O)[C@@H]1CO | – | Hexb-/- mouse | 30 mg/kg/day | – | delay of motor symptom onset | ≥ 2 week |
| Cn1cc(Nc2nccc(-c3ccc4c(c3)CN(C3COC3)CC[C@H]4NC(=O)c3cn(C(C)(C)C)nn3)n2)cn1 | refers to: Th1 Pathway | splenic B cells, mouse | in vivo, 30 mg/kg, IgD-activated B cells | relative to: vehicle, positive = activation | pathway activation z-score | 2.83 |
| NC(=O)c1cnc2[nH]ccc2c1N[C@@H]1[C@@H]2CC3C[C@H]1C[C@@](O)(C3)C2 | CD4+ memory T cells, flow cytometry | Caucasian humans, peripheral blood | 200 mg single dose | relative to: baseline | percent change | 0.3% |
| CC#CC(=O)N[C@H]1CCCN(c2c(F)cc(C(N)=O)c3[nH]c(C)c(C)c23)C1 | – | human, peripheral blood | 10 mg once daily, day 15 | relative to: baseline | B cells | 171 % change |

Excerpt of the above:
| SMILES | assay | test system | setting | scale | quantity | result |
| --- | --- | --- | --- | --- | --- | --- |
| CC(=O)NCC(=O)NCC(=O)N[C@H](C(=O)N[C@@H](Cc1ccc(O)cc1)C(=O)N[C@@H](CO)C(=O)N[C@H]1CSSC[C@@H](C(=O)N[C@@H](CCCNC(=N)N)C(=O)N2CCC[C@H]2C(=O)N[C@@H](CCC(N)=O)C(=O)N[C@@H](CCCNC(=N)N)C(=O)NCC(=O)NCCC(=O)N[C@@H](CCCCNC(=O)CN(CC(=O)NCCCC[C@H](NC(=O)CCNC(=O)CNC(=O)[C@H](CCCNC(=N)N)NC(=O)[C@H](CCC(N)=O)NC(=O)[C@@H]2CCCN2C(=O)[C@H](CCCNC(=N)N)NC(=O)[C@@H]2CSSC[C@H](NC(=O)[C@H](CO)NC(=O)[C@H](Cc3ccc(O)cc3)NC(=O)[C@@H](NC(=O)CNC(=O)CNC(C)=O)[C@@H](C)O)C(=O)N[C@@H](Cc3c[nH]cn3)C(=O)N[C@@H](Cc3ccccc3)C(=O)NCC(=O)N[C@@H](C)C(=O)N[C@@H](CC(C)C)C(=O)N[C@@H]([C@@H](C)O)C(=O)N[C@@H](Cc3c[nH]c4ccccc34)C(=O)N[C@@H](C(C)C)C(=O)N2)C(N)=O)C(=O)CCN)C(N)=O)NC(=O)[C@H](C(C)C)NC(=O)[C@H](Cc2c[nH]c3ccccc23)NC(=O)[C@H]([C@@H](C)O)NC(=O)[C@H](CC(C)C)NC(=O)[C@H](C)NC(=O)CNC(=O)[C@H](Cc2ccccc2)NC(=O)[C@H](Cc2c[nH]cn2)NC1=O)[C@@H](C)O | – | healthy BALB/c mice | subcutaneous, 0.08 mg/kg, 4 d, single dose | – | haematocrit | 48.5% |
| O=C1Nc2cc3[nH]nc(-c4ccncc4)c3cc2CN1Cc1ccccc1 | RECIST v1.1 | human, relapsed or refractory advanced solid tumours | intravenous, 7.2 mg/kg | – | complete response, best response | 0% |
| C=CCn1c(=O)c2cnc(Nc3ccc(N4CCN(C)CC4)cc3)nc2n1-c1ccc2c(n1)[C@@](O)(CC)CC2 | – | NOD/SCID mouse, A-427 xenograft | oral, 80 mg/kg once daily, 5 d on 2 d off ×1, day 42 | relative to: vehicle | tumour volume difference | -80.3 ± 4.2 mm3 |
